Results from different studies.
Numbered parts are unrelated; each lists some results of a single study. Substitutions count along the parent as printed.
UniProt Q15208, sequence (whole entry, looked up): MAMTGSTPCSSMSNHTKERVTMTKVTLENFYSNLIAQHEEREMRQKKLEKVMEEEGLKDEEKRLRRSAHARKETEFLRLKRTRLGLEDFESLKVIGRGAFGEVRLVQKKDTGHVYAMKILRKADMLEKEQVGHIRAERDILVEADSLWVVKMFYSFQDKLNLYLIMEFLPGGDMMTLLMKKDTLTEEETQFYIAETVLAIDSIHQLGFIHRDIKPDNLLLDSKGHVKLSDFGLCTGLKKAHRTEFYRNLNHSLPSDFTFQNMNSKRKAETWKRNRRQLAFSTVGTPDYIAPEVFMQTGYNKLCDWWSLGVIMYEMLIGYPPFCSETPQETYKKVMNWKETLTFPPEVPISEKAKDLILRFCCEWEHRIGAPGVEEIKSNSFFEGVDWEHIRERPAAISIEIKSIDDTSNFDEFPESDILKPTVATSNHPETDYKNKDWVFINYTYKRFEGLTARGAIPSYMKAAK
UniProt Q9Y6M4, sequence (whole entry, looked up): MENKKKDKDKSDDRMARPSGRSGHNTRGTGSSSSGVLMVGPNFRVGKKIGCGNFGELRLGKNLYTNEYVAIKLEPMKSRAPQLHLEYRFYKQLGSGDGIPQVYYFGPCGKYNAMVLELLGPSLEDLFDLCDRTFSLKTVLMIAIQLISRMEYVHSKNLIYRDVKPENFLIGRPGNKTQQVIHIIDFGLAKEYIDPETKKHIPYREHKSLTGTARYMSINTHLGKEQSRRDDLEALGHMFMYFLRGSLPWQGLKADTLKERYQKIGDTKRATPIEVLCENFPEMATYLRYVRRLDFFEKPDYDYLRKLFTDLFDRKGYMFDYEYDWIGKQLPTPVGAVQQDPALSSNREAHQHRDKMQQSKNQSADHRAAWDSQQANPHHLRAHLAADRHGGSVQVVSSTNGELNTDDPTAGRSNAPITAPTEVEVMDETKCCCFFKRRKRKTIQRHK
UniProt Q9UHD2, sequence (whole entry, looked up): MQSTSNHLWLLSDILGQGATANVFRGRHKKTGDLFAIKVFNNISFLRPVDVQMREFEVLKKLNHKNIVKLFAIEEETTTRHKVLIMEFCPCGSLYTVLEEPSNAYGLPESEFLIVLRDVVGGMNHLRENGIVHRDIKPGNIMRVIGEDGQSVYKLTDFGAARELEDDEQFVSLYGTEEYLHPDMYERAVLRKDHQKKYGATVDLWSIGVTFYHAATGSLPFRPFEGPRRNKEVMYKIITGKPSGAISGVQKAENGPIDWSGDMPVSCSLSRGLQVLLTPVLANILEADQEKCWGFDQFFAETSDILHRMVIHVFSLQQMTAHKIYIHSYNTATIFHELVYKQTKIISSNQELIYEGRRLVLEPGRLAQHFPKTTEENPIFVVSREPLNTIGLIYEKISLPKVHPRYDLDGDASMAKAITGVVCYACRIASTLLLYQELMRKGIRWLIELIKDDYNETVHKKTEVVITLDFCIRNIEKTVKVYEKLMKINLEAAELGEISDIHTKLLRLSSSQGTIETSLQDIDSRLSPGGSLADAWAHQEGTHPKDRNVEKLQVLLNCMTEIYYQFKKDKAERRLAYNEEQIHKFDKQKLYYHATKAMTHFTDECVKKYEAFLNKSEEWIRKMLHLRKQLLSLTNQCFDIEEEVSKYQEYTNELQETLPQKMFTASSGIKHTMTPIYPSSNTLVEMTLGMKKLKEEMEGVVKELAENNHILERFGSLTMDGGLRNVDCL
UniProt Q8NG66, sequence (whole entry, looked up): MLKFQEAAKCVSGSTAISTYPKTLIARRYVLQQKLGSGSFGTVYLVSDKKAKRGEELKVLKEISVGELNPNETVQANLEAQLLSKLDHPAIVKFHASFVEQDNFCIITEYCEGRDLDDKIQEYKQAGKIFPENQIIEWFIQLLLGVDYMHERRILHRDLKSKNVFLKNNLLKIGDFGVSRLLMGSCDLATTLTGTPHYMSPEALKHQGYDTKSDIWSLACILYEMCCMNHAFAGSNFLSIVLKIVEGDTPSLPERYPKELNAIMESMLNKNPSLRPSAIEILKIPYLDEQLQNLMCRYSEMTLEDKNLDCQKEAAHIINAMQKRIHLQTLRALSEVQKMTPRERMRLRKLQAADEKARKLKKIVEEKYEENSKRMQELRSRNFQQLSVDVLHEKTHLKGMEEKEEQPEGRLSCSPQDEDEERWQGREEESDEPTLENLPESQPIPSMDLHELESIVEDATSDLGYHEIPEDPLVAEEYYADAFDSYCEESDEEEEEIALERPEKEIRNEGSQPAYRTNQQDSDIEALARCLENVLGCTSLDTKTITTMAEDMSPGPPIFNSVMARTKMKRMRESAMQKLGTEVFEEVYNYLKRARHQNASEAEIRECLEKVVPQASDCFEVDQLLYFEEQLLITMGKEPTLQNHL
UniProt Q96PY6, sequence (whole entry, looked up): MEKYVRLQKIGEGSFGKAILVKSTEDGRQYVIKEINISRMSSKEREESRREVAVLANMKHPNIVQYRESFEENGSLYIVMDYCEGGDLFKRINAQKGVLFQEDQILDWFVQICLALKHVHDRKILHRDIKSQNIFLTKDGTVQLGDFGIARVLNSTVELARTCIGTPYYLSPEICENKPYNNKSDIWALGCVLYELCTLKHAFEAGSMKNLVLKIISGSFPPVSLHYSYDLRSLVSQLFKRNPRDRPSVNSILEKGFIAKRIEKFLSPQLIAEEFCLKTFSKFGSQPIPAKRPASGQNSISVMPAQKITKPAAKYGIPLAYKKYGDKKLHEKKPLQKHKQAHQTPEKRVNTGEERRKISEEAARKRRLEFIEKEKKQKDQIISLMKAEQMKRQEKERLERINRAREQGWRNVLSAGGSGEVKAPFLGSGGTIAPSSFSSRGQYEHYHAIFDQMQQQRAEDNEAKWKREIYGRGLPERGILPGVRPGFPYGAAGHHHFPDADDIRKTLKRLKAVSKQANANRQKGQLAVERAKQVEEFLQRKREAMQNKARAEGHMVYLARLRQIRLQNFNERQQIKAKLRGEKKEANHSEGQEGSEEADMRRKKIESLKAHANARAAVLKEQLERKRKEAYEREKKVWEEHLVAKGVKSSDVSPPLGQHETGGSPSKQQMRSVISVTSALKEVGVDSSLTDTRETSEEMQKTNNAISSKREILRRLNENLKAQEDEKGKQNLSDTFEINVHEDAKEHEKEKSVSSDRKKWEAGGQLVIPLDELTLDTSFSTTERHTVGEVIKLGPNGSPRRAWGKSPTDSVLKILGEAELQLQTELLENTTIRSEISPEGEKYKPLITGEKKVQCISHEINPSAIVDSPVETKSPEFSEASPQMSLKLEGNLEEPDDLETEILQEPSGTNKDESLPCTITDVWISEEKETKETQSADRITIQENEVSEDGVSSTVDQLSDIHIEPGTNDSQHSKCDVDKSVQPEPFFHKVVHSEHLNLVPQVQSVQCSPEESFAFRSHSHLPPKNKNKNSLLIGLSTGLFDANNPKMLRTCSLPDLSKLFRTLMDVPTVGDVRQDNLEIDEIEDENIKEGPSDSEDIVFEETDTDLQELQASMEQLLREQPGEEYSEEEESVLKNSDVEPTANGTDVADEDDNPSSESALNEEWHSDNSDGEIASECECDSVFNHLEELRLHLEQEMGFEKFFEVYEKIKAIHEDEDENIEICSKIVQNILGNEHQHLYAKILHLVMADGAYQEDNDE
UniProt P78362, sequence (whole entry, looked up): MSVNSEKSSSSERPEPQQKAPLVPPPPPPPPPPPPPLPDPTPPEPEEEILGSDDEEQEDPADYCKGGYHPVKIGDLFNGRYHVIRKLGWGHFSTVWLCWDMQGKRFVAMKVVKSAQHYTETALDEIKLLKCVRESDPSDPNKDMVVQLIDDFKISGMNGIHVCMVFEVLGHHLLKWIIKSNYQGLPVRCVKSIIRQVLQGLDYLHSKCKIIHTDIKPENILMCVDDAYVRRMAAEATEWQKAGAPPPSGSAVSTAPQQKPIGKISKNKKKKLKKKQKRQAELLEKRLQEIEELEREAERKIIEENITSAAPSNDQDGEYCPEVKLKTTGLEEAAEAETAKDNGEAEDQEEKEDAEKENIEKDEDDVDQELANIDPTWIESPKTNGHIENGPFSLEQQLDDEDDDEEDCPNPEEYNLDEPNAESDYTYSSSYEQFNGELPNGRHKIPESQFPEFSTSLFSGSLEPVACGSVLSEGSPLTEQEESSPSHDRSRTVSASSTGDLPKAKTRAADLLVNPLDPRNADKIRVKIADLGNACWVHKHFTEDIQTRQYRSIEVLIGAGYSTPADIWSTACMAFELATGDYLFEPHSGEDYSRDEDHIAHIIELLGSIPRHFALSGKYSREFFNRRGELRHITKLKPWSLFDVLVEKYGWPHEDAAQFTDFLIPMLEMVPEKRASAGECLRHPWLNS
UniProt P36896, sequence (whole entry, looked up): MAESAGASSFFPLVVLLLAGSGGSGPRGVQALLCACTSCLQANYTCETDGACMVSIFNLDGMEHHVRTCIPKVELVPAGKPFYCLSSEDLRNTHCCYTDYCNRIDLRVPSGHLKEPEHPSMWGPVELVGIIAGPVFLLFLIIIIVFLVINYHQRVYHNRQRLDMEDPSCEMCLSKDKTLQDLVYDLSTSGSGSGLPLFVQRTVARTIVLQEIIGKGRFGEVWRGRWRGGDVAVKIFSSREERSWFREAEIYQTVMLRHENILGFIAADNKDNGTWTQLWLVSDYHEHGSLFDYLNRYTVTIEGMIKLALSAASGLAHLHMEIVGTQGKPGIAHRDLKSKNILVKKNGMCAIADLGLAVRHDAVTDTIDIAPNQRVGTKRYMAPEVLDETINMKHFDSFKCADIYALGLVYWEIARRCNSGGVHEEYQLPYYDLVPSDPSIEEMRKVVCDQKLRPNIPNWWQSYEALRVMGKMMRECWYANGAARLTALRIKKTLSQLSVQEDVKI

Series 1
Compound: CO[C@H]1CC[C@H](CNc2ccc(S(=O)(=O)NC(=O)c3ccc(N4CCN(CC5=C(c6ccc(Cl)cc6)CC(C)(C)CC5)CC4)cc3Oc3cnc4[nH]ccc4c3)cc2[N+](=O)[O-])CC1
Observed: cell-free assay
Technique: competition with immobilised ligand
Concentration: 1 µM
Quantity: remaining binding
SRPK2 (Homo sapiens, UniProt P78362): 55%
Tyrosine-protein kinase ABL1, phosphorylated (ABL1, Homo sapiens, UniProt P00519, Q252H): 100%
TAOK1 (Homo sapiens, UniProt Q7L7X3): 88%
STK38 (Homo sapiens, UniProt Q15208): 98%
NEK11 (Homo sapiens, UniProt Q8NG66): 100%
MET (Homo sapiens, UniProt P08581): 68%

Series 2
Compound: Cc1cn(-c2cc(NC(=O)c3ccc(C)c(Nc4nccc(-c5cccnc5)n4)c3)cc(C(F)(F)F)c2)cn1
Observed: enzyme activity
Action: inhibitor
Concentration: 0.5 µM
Baseline: control
Quantity: remaining activity
TBK1 (Homo sapiens, UniProt Q9UHD2): 103%
NEK1 (Homo sapiens, UniProt Q96PY6): 75%
MST1R (Homo sapiens, UniProt Q04912): 94%
JAK3 (Homo sapiens, UniProt P52333): 94.2%
MERTK (Homo sapiens, UniProt Q12866): 96.4%
ABL2 (Homo sapiens, UniProt P42684): 4.86%
FRK (Homo sapiens, UniProt P42685): 16.2%
MAP3K14 (Homo sapiens, UniProt Q99558): 113%
EPHA3 (Homo sapiens, UniProt P29320): 40.8%
CSNK1G3 (Homo sapiens, UniProt Q9Y6M4): 101%
MAP3K5 (Homo sapiens, UniProt Q99683): 105%
ACVR1B (Homo sapiens, UniProt P36896): 103%
TEK (Homo sapiens, UniProt Q02763): 102%

Series 3
Target: CEBPD, bZIP domain (human)
Technique: DHFR protein complementation
Sample: yeast
Setting: single substitutions, most at no-binding floor
Baseline: wild-type JUN-FOS pair
Reading: higher = stronger binding
Quantity: binding fitness
Parent: JUN, bZIP domain (human); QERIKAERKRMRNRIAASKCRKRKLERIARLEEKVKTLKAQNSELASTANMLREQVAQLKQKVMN; partner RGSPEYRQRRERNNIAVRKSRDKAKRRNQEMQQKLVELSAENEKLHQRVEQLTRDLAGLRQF
L31W: -1.41 natural log
K34T: -1.41 natural log
L45H: -1.51 natural log
R53K: -1.18 natural log
K39M: -1.32 natural log
A29P: -1.34 natural log
M51I: -1.37 natural log
E33W: -1.41 natural log

Single results of other studies
Technique: two-hybrid
Baseline: out of 4 tests
Reading: higher = firmer interaction
T1: itself; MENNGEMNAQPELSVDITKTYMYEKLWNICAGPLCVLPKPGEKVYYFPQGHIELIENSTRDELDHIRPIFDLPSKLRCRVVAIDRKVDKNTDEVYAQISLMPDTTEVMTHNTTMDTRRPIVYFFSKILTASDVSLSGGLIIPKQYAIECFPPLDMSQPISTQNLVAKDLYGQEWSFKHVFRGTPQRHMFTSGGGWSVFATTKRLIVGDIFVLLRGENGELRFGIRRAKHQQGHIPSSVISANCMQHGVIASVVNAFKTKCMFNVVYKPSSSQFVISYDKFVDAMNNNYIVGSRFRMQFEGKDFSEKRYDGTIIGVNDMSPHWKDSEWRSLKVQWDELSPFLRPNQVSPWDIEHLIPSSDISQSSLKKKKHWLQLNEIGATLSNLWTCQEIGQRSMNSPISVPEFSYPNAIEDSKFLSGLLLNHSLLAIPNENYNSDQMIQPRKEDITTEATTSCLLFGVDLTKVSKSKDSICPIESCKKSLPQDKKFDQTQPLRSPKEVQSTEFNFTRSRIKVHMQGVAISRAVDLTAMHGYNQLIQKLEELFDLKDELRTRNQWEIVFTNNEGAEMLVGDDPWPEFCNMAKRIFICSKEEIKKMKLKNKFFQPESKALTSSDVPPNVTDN
T2: itself; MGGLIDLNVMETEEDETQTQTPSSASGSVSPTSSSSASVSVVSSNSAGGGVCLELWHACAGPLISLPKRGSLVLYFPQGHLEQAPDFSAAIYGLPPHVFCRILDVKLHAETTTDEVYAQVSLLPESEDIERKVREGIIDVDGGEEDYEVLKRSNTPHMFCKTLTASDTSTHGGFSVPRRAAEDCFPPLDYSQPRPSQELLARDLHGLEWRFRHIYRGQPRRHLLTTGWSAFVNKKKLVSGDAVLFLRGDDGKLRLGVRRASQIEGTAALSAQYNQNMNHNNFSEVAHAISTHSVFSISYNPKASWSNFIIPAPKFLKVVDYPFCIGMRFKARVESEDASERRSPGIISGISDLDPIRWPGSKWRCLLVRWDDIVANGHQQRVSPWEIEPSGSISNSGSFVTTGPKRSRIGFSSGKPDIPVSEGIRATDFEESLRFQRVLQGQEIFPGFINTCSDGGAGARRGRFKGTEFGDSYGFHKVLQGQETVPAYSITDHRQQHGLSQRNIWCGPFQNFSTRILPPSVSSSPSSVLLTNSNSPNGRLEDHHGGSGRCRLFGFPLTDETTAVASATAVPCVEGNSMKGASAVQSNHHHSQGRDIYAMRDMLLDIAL
T3: itself; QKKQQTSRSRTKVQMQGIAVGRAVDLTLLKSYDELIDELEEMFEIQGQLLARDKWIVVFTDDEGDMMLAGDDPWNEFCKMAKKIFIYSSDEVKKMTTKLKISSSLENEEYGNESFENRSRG
T4: itself; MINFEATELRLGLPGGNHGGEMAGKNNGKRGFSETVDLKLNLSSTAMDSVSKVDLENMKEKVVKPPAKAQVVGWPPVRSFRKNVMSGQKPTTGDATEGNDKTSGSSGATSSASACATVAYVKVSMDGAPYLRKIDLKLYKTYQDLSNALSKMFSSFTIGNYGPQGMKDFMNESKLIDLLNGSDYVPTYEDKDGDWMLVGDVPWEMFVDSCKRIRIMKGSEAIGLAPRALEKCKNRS
B1: ARF18 482-602 (Arabidopsis thaliana, UniProt Q9C5W9); chain QKKQQTSRSRTKVQMQGIAVGRAVDLTLLKSYDELIDELEEMFEIQGQLLARDKWIVVFTDDEGDMMLAGDDPWNEFCKMAKKIFIYSSDEVKKMTTKLKISSSLENEEYGNESFENRSRG
B2: IAA16 (Arabidopsis thaliana, UniProt O24407); chain MINFEATELRLGLPGGNHGGEMAGKNNGKRGFSETVDLKLNLSSTAMDSVSKVDLENMKEKVVKPPAKAQVVGWPPVRSFRKNVMSGQKPTTGDATEGNDKTSGSSGATSSASACATVAYVKVSMDGAPYLRKIDLKLYKTYQDLSNALSKMFSSFTIGNYGPQGMKDFMNESKLIDLLNGSDYVPTYEDKDGDWMLVGDVPWEMFVDSCKRIRIMKGSEAIGLAPRALEKCKNRS
ARF13 (Arabidopsis thaliana, UniProt Q9FX25)
positive tests (T1, itself): 0

ETT (Arabidopsis thaliana, UniProt O23661)
positive tests (T2, itself): 0

B1 (ARF18 482-602)
positive tests (T3, itself): 0

B2 (IAA16)
positive tests (T4, itself): 2

Excerpt of the above (series 3):
K39M: -1.32 natural log
E33W: -1.41 natural log
